Results of several laboratories.
Each line is one published result; not all experiments were run side by side. Several values in a cell are separate wells, animals, samples, runs or records. ± marks the error that the study gave. Ends that are not written are not given here. The star is where a group is joined. * marks the point of attachment.
CDK5 with p25: Cyclin-dependent kinase 5, with p25 (CDK5, Homo sapiens, UniProt Q00535)
P4HB: Protein disulfide-isomerase (P4HB, Homo sapiens, UniProt P07237)
HLA class I histocompatibility antigen, B alpha chain: HLA class I histocompatibility antigen, B alpha chain (Homo sapiens, UniProt P01889)
B1: chain MSEILPYGEDKMGRFGADPEGSDLSFSCRLQDTNSFFAGNQAKRPPKLGQIGRAKRVVIEDDRIDDVLKGMGEKPPSGV

| Substance | tested on | assay | system | conditions | scale | endpoint | value |
| --- | --- | --- | --- | --- | --- | --- | --- |
| glutathione | GAPDH (Homo sapiens, UniProt P04406) | spectrophotometric Vmax |  | 10 µM, together with: enzyme 10 nM | baseline: vehicle | enzyme activity | 96.9% and 99.3% and 103% and 94.7% |
| SVCETGSNTEE | LC8 dynein light chain | isothermal titration calorimetry | peptide | concentration not given, 25 °C, 500 µM and 60 µM |  | binding | no binding |
| human ME2 E90D |  | enzyme activity, NADH absorbance |  | with fumarate 3 mM, together with: L-malate varied |  | Hill coefficient | 1.04 ± 0.03 |
| QLATKAARKSAPATG | Procathepsin L (CTSL, Homo sapiens, UniProt P07711) | enzyme activity, inhibitor | peptide | 25 µM, pH 6.0, 25 °C, unlabelled peptide, together with: Z-LR-Mca at 0.16 Km | baseline: unrelated control peptides | inhibition | 32.1 ± 0.1% |
| KEAFWDRCLSVINLMSSKMLQIQA | CDK5 with p25 | phosphotransferase activity, radiometric | peptide | concentration not given, 10% DMSO, together with: histone substrate | baseline: p5-WT peptide | activity change | 50% |
| human ME2 L79F |  | enzyme activity, NADH absorbance |  | with fumarate 3 mM, together with: L-malate varied |  | Hill coefficient | 1.2 ± 0.04 |
| B1 | CAMK2A (Homo sapiens, UniProt Q9UQM7, D135N/W214A) | binding, ITC | kinase domain D135N/W214A |  |  | −TΔS | -1.5 kcal/mol and -1.64 kcal/mol |
| KEAFWDRALSVINLMSSKMLQINA | CDK5 with p25 | phosphotransferase activity, radiometric | peptide | concentration not given, 10% DMSO, together with: histone substrate | baseline: p5-WT peptide | activity change | 0% |
| RDHPRWGASNTALARWLPP | HLA-DR, human | DELFIA | peptide | 10 µM, 48 h, 37 °C | baseline: peptide alone | binding | > 2 fold |
| KQAFWDRCLSVINLMSSKMLQINA | CDK5 with p25 | phosphotransferase activity, radiometric | peptide | concentration not given, 10% DMSO, together with: histone substrate | baseline: p5-WT peptide | activity change | 38% |
| Ro 41-0960 | Genome polyprotein, NS3 helicase domain (Hepatitis C virus genotype 1b, UniProt Q9WMX2) | NS3 helicase DNA binding, fluorescence, Cy5-dT15 |  | 100 µM |  | inhibition | 5% |
| 11-deoxycorticosterone | CYP11B2 (human) | substrate binding, stopped-flow global kinetic fitting | purified enzyme | 3-state conformational selection model, together with: equimolar adrenodoxin |  | rate constant k-2 | 15 ± 0.779 s⁻¹ |
| dextrin | uncharacterized protein (Pelagibacter ubique, UniProt Q4FMK2) | thermal stabilisation, differential scanning fluorimetry | Candidatus Pelagibacter ubique |  |  | ΔTm | 6.32 °C |
| KEAFWDRCLSVINLMSYKMLQINA | CDK5 with p25 | phosphotransferase activity, radiometric | peptide | concentration not given, 10% DMSO, together with: histone substrate | baseline: p5-WT peptide | activity change | 26% |
| BzATP | P2X purinoceptor 7 (P2rx7, Rattus norvegicus, UniProt Q64663, I214A) | ion current, agonist, two-electrode voltage clamp | Xenopus oocytes | 0.41 µM |  | normalized current | 0 |
| KEAFWDRCLSVINLMSSKMLQINV | CDK5 with p25 | phosphotransferase activity, radiometric | peptide | concentration not given, 10% DMSO, together with: histone substrate | baseline: p5-WT peptide | activity change | -25% |
| AAFRFGHATIHPLVRRLDASFQEH | HLA-DR, human | DELFIA | peptide | 10 µM, 48 h, 37 °C | baseline: peptide alone | binding | > 2 fold |
| SFFYVTETTF | human HLA-A*2401 (HLA-A24) | iTopia initial binding | peptide | 11 µM, 18 h, 21 °C | baseline: allele positive control peptide | binding | 107% |
| For-MAHA (N-formyl; For = O=C*) | Peptide deformylase, mitochondrial (Homo sapiens, UniProt Q9HBH1) | substrate, FDH/NAD+-coupled |  | pH 7.5 |  | Km | 8140 ± 887 µM |
| ESGRRVLVYSCRHGYELQG | HLA-DR, human | DELFIA | peptide | 10 µM, 48 h, 37 °C | baseline: peptide alone | binding | > 2 fold |

| Substance | tested on | assay | system | conditions | scale | endpoint | value |
| --- | --- | --- | --- | --- | --- | --- | --- |
| alpinetin | MAL12 (Saccharomyces cerevisiae S288c, UniProt P53341) | enzyme activity, inhibitor |  | concentration not given, together with: p-NPG substrate |  | inhibition | 0% |
| KEAFWDRCLSVINLMSAKMLQINA | CDK5 with p25 | phosphotransferase activity, radiometric | peptide | concentration not given, 10% DMSO, together with: histone substrate | baseline: p5-WT peptide | activity change | 61% |
| TSAEGLLRVHARLRDSGRA | HLA-DR, human | DELFIA | peptide | 10 µM, 48 h, 37 °C | baseline: peptide alone | binding | > 2 fold |
| KEAFWDRCLSVINLMSSKMLQINI | CDK5 with p25 | phosphotransferase activity, radiometric | peptide | concentration not given, 10% DMSO, together with: histone substrate | baseline: p5-WT peptide | activity change | 14% |
| BODIPY-labelled L-cystine | P4HB | substrate, steady-state kinetics |  |  |  | Km | 1 ± 0.2 µM |
| KEIANLEKEIASLEKKVAVLKQRNAAHKQEVAALRKEIAYVEDEIQYVEDE | Transcription factor MafG (Homo sapiens, UniProt O15525) | heterodimer thermal denaturation, CD | 1 M GuHCl | 4 µM total peptide, pH 7.4 |  | Tm | 37.9 °C |
| alkynyl-geranylgeranyl pyrophosphate | geranylgeranyltransferase type-I (Rattus norvegicus, UniProt P53610+Q04631) | substrate, fluorescence anisotropy |  | isoprenoid Km, together with: FAM-RhoA peptide |  | Km | 0.026 µM |
| TVB-3166 | Palmitoyl-protein thioesterase 1 (Homo sapiens, UniProt P50897) | enzyme activity, inhibitor |  | 125 µM |  | inhibition | 7.35% |
| Ivermectin | GABA-A receptor; alpha-1/beta-2/gamma-2 (Rattus norvegicus, UniProt P18508+P62813+P63138) | whole-cell patch clamp | HEK293 cells | concentration not given, 30 s | baseline: maximum | response amplitude | 50% |
| β-lactose | Frizzled-8 (Xenopus laevis, UniProt Q91719) | binding, biolayer interferometry |  | 25 °C, together with: immobilized biotinylated carbohydrate |  | association rate constant | 18300 M⁻¹ s⁻¹ |
| Tannic acid | P4HB | insulin reduction, inhibitor |  | 20 µM |  | inhibition | inhibited |
| LPSDFKTIL | HLA class I histocompatibility antigen, B alpha chain | iTopia initial binding | peptide | 11 µM, 18 h, 21 °C, HLA-B7 allele | baseline: allele positive control peptide | binding | 53% |
| ESLSLSLSLSLSLEGTVFTSWEEYLDWV | PCSK9 (Homo sapiens, UniProt Q8NBP7) | SPR | peptide | 78 nM to 40 µM |  | maximum binding signal | 1580 RU |
| Cbz-WEHD-CH2F (Z-WEHD-FMK; Cbz = O=C(OCc1ccccc1)*; CH2F = FC*) | Caspase-1 (CASP1, Homo sapiens, UniProt P29466) | inhibitor, FRET |  | 100 nM, 30 min preincubation, 5 nM enzyme |  | remaining activity | 0% |
| milbemycin oxime | CDR1 (Candida albicans, UniProt Q5ANA3) | binding, microscale thermophoresis |  | 313 nM |  | fraction bound | 60.3% |
| pregnenolone sulfate | TRPM3 (Homo sapiens, UniProt Q9HCF6) | whole-cell patch clamp | HEK-293T expressing hTRPM3-YFP | 40 µM, at +80 mV, together with: clotrimazole 10 µM, DTT pretreatment |  | current density | 5.47 ± 2.2 pA/pF |
| KELFWDRCLSVINLMSSKMLQINA | CDK5 with p25 | phosphotransferase activity, radiometric | peptide | concentration not given, 10% DMSO, together with: histone substrate | baseline: p5-WT peptide | activity change | 57% |
| RPGVNLSL | HLA class I histocompatibility antigen, B alpha chain | iTopia initial binding | peptide | 11 µM, 18 h, 21 °C, HLA-B7 allele | baseline: allele positive control peptide | binding | 72% |
| GSGSSRYWANATRSGG | Tap1/Tap2 (Rattus norvegicus, UniProt P36370+P36372) | Edman degradation | peptide, T2/TAP1+2 cells |  |  | translocated peptide size | ≤ 12 amino acids |

For quick reference, copied from above:
| Substance | tested on | assay | system | conditions | scale | endpoint | value |
| --- | --- | --- | --- | --- | --- | --- | --- |
| BODIPY-labelled L-cystine | P4HB | substrate, steady-state kinetics |  |  |  | Km | 1 ± 0.2 µM |
| TVB-3166 | Palmitoyl-protein thioesterase 1 (Homo sapiens, UniProt P50897) | enzyme activity, inhibitor |  | 125 µM |  | inhibition | 7.35% |
| BzATP | P2X purinoceptor 7 (P2rx7, Rattus norvegicus, UniProt Q64663, I214A) | ion current, agonist, two-electrode voltage clamp | Xenopus oocytes | 0.41 µM |  | normalized current | 0 |
| KEAFWDRALSVINLMSSKMLQINA | CDK5 with p25 | phosphotransferase activity, radiometric | peptide | concentration not given, 10% DMSO, together with: histone substrate | baseline: p5-WT peptide | activity change | 0% |
| KQAFWDRCLSVINLMSSKMLQINA | CDK5 with p25 | phosphotransferase activity, radiometric | peptide | concentration not given, 10% DMSO, together with: histone substrate | baseline: p5-WT peptide | activity change | 38% |
